Published values collected from several papers.
Each line is one published result; not all experiments were run side by side. Where no end group is shown, it is not given here. [ ]: non-standard residue; d: D form. The star is where a group is joined.

| Substance | cell line | test | system | setting | how to read | measurement | value |
| --- | --- | --- | --- | --- | --- | --- | --- |
| COc1ccc(Cl)cc1C(=O)NCCc1ccc(S(=O)(=O)NC(=O)NC2CCCCC2)cc1 | hiPSC-derived 3D engineered cardiac tissue | contractility | serum-free medium | concentration not given, 15 min, paced at 1 Hz | baseline: time-matched vehicle | active force | no effect |
| V[dF]IA (D-Phe2) | PC-12 | protection from Aβ1–42 toxicity, MTT |  | concentration not given, 6 h, Aβ to peptide ratio 1:5, together with: Aβ1–42 2 µM | baseline: untreated cells | cell viability | 71.5% |
| Cc1ccc(C)c(/C=C/[C@]2(O)CC[C@H]3[C@@H]4CCc5cc(O)ccc5[C@H]4CC[C@@]32C)c1 | Ishikawa | alkaline phosphatase induction, agonist |  | concentration not given, 3 d | baseline: estradiol | relative stimulatory activity | 12.3% |
| [dI]VIA (D-Ile1) | PC-12 | protection from Aβ1–42 toxicity, MTT |  | concentration not given, 6 h, Aβ to peptide ratio 1:10, together with: Aβ1–42 2 µM | baseline: untreated cells | cell viability | 70% |
| CC(C)CN(C(=O)c1cccnc1)c1c2ccccc2c(=O)n2c1[nH]c1ccccc12 | SW-620 | cell growth or viability, MTT |  |  |  | GI50 | ~20 µM |
| VV[dP]A (D-Pro3) | PC-12 | protection from Aβ1–42 toxicity, MTT |  | concentration not given, 6 h, Aβ to peptide ratio 1:1, together with: Aβ1–42 2 µM | baseline: untreated cells | cell viability | 78.1% |
| CCN1C(=O)C(C(C)=O)S/C1=N/N=C(\C)c1ccccn1 (stereo not shown) | HEp-2 | cell growth or viability, SRB |  | 100 µg/mL, 48 h |  | inhibition | 72.4% |
| CC[C@H](C)[C@H](NC(=O)[C@@H](NC(=O)[C@H](N)C(C)C)C(C)C)C(=O)N[C@@H](C)C(N)=O | PC-12 | Aβ42-induced neurotoxicity, inhibitor, MTT |  | concentration not given, 6 h, 37 °C, peptide to Aβ42 1:2, together with: Aβ42 2 µM | baseline: untreated cells | viability | 100% |
| 5FAM-KKSRRC(Farnesyl)VLS (N-5-FAM, S-farnesyl-Cys; 5FAM = O=C1OC2(c3ccc(O)cc3Oc3cc(O)ccc32)c2ccc(C(=O)*)cc21; Farnesyl = CC(C)=CCC/C(C)=C/CC/C(C)=C/C*) | COS-1 | flow cytometry |  | 1 µM, 2 h, together with: rotenone 12 µM and 2-deoxyglucose 15 mM | baseline: normal ATP conditions | cellular uptake | no effect |
| C/C(=N\N=c1/[nH]c(C)c(/N=N/c2ccc(C)cc2)s1)c1ccccn1 | HEp-2 | cell growth or viability, SRB |  | 100 µg/mL, 48 h |  | inhibition | 71% |

Some of these lines once more:
| Substance | cell line | test | system | setting | how to read | measurement | value |
| --- | --- | --- | --- | --- | --- | --- | --- |
| CC(C)CN(C(=O)c1cccnc1)c1c2ccccc2c(=O)n2c1[nH]c1ccccc12 | SW-620 | cell growth or viability, MTT |  |  |  | GI50 | ~20 µM |
